Results pooled from the literature.
Protocols differ between the studies behind these lines.
TGFBR1: TGF-beta receptor type-1 (TGFBR1, Homo sapiens, UniProt P36897)
Chain of UniProt P36897 (whole entry, looked up): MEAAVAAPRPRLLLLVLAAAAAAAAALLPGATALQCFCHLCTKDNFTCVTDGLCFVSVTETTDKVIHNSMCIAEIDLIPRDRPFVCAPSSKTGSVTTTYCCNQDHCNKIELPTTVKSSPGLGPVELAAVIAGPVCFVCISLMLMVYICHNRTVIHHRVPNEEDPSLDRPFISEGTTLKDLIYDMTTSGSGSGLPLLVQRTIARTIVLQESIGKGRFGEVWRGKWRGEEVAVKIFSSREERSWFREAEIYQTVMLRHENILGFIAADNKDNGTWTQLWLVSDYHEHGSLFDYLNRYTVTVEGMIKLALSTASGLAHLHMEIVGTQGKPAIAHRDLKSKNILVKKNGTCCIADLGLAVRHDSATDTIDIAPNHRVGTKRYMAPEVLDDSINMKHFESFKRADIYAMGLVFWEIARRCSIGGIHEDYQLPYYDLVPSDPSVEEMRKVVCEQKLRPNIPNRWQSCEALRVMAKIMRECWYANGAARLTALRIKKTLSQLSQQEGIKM
CA9: Carbonic anhydrase 9 (CA9, Homo sapiens, UniProt Q16790)
Chain of UniProt P0DMS8 (whole entry, unmodified, looked up): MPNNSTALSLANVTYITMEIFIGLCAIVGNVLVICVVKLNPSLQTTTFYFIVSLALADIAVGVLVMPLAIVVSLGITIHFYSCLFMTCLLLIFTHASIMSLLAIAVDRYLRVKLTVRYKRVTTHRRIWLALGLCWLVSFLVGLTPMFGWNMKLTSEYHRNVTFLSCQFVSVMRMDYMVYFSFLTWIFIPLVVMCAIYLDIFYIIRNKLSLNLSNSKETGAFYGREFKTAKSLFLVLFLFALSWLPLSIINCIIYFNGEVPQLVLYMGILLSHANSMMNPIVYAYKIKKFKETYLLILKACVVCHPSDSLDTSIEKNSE

CCCCC(=O)Nc1ccc(-c2ccc3ncn(CCC)c(=O)c3c2)cn1 — remaining binding (TGFBR1; binding, competition with immobilised ligand; 0.5 µM): 77%
Nc1ccn([C@@H]2O[C@H](CO)[C@@H](O)C2(F)F)c(=O)n1 — viability (HEK293; cell growth or viability, MTT; 0.15625 µg/mL, 24 h): 91.5%
Cc1cc([C@@H](C)Nc2ccccc2C(=O)O)c2nc(N3CCC(F)(F)CC3)c(C#N)c(=O)n2c1 — remaining binding (TGFBR1; binding, competition with immobilised ligand; 10 µM): 92%
NS(=O)(=O)c1cc(C(=O)OCc2csc(CC(=O)Nc3ccccc3)n2)ccc1Cl — IC50 (CA9; enzyme activity, inhibitor): 0.144 µM
[2H]c1c([2H])c([C@]2([2H])CCCN2C(=O)C(C)(C)Oc2ccc3cn[nH]c3c2)c([2H])c([2H])c1C([2H])([2H])[2H] — remaining binding (TGFBR1; binding, competition with immobilised ligand; 1 µM): 87%
CC(=O)Nc1ccc(NC(=O)Nc2nc(CC(=O)Nc3ccc(S(N)(=O)=O)cc3)cs2)cc1 — IC50 (CA9; enzyme activity, inhibitor): 0.0302 µM
CN(C)c1ncnc2c1ncn2[C@@H]1O[C@H](CO)[C@@H](O)[C@H]1O — EC50 (Adenosine receptor A3 (ADORA3, Homo sapiens, UniProt P0DMS8, M174F); G protein activation, agonist): 35 µM
C=CC(=O)N1CCC(COCC(=O)N2CCN(c3nc(-c4cnc(N)nc4C(F)F)nc(N4CCOC[C@@H]4C)n3)CC2)CC1 — remaining binding (TGFBR1; binding, competition with immobilised ligand; 1 µM): 100%
